Results gathered from unrelated publications.
Every numbered part comes from another study and shows a few of its results, in no order.

Set 1
Organism: SARS-CoV-2
Observed: cytopathic effect
Cell line: Vero E6
Tested at: 10 µM
Measurement: inhibition
CCC[C@H](NC(=O)[C@@H]1[C@H]2CCC[C@H]2CN1C(=O)[C@@H](NC(=O)[C@@H](NC(=O)c1cnccn1)C1CCCCC1)C(C)(C)C)C(=O)C(=O)NC1CC1: -0.44%
CN1CCN(C2=C(Cl)C(=O)N(c3ccc(Cl)c(Cl)c3)C2=O)CC1: -10.3%
O=c1c2ccccc2[se]n1-c1ccccc1: -2.9%

Set 2
Target: Sal-like protein 4, full length isoform B (SALL4, Homo sapiens, UniProt Q9UJQ4-2, residues 1-616)
Technique: universal PBM
Molecule type: double-stranded DNA, one strand shown
Medium: in vitro
Tested at: not given
Setting: 8-mer, flanks averaged, mean of replicates
Direction: higher = stronger binding
Measurement: E-score
CTTCAAAC: -0.107
GACATCAA: 0.122
GACTACCC: -0.264
GAATAGTC: -0.0427
AATTATGA: 0.449
CGTCATGA: -0.0558
CTGTCTGA: -0.0787
CAATATTG: 0.391

Set 3
Target: RNA binding protein fox-1 homolog 2, RRM domain, GST-SBP tag (RBFOX2, Homo sapiens, UniProt O43251-10, residues 100-194)
Technique: RNA Bind-n-Seq
Molecule type: RNA
Medium: in vitro
Tested at: 365 nM
Setting: natural RNA segment, single round, ends assumed
Reference: no-protein control
Direction: higher = stronger binding
Measurement: RBNS enrichment (R)
Constant ends, left off below: GGGAGUUCUACAGUCCGACGAUC … UGGAAUUCUCGGGUGCCAA
Residues (chain): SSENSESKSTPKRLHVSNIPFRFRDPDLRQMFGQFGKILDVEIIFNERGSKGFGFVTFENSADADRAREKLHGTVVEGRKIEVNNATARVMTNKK
UUCCAAACCAGAUUUCCUGUGAUUCUAUACUAAUAAUUUUUGAUAUAACCCUUUGCUUCUUAUAAUGAGUGCGAUAUAUGUUGUCGAGGCUGUUCUUCAAGAAUUAAAAU: 0.534
UGGGUCUCACUAUACAGAGCAGCCUGCCUCCCCACUGCUGGGAUUAAGCUGAGAAGCACCAAGUCUGACCACCCGUGUGUUGAUGACUUGCAGUCAAUUAACUAUGUGUG: 0.356
AAGUCCUGAUCAGCUGUCAGAUUGUUCUGAGAGUCUCAUCGCUGUCCUCGAGUGUCCAGUCUCAGGUGAUCUUGACCUGAUCGGAGUCGCCAGGCAGUAUAUCCAGUUAG: 0.229
CUUAUUCUUGGUUCAUCAUACUCCAGACCAUGUAUCCUCUGGUGUCCUGGCUGGAAGAAGGGGCGUGUGGCCAUGCAGCCCGCUCUCCCAAGCUGUCCCAGCAAAUGGGC: 0.336
GGGUGGGAUAAAAGGUGGCAGAGGGAGCAAGGUCUUAAUUGCUCUGAAGGUUGGACCCGUGAAGCCCUGGCAUAGACCUGAAGAGGUGGCAGCCAGUGGGUGGUUGUUUC: 0.809
UUUCUUCCAUGUUGCCCAGGCUGGUCUCGAACUCCUGGACUCAAGCAAUCCGCCCACCUUGACUUCCCAAAGUGCUGGGAUUAUGGGCGGGUGUGAGCCAUUGCGCCCAG: 0.364
AAAAAAGGAAAAAAUCCCUAAACAUUCACCUUGACCUUAUUUAUGACUUUACGUGCAAAUGUUUUGACCAUAUUGAUCAUAUAUUUUGACAAAAUAUAUUUAUAACUACG: 0.397
GAACAAAAGCACAGAGAUGGCUCAGUGGUUAGGAGCACUGACUCCUUUUCCGUAGGUCCUGAGUUCAAAUCCCAGUAACCACAUGGUGGCUGACAACCACCCGUAAUGAG: 0.281

Set 4
Cell line: HEK-293T/ACE2
Tested at: concentration not given
Time: 16 (unit not given)
Reference: vehicle
Measurement: viability
O=C1NC(=O)C(c2ccccc2)(c2ccccc2)N1: 102%
CC1CNc2c(cccc2S(=O)(=O)N[C@@H](CCCNC(=N)N)C(=O)N2CC[C@@H](C)C[C@@H]2C(=O)O)C1 (some centres unmarked): 108%
C=CC[N+]1([C@H]2C[C@H]3[C@@H]4CC[C@H]5C[C@H](O)[C@@H](N6CCOCC6)C[C@]5(C)[C@H]4CC[C@]3(C)[C@H]2OC(C)=O)CCCC1: 102%

Further values, each from its own experiment
tyrphostin AG 835  inhibition (Replicase polyprotein 1ab, nsp12 with nsp7/nsp8 (rep, Severe acute respiratory syndrome coronavirus 2, UniProt P0DTD1); RdRp activity, inhibitor; 20 µM): 91.4%

For quick reference, copied from above (set 2):
CAATATTG: 0.391
CTTCAAAC: -0.107
CGTCATGA: -0.0558
